# Measurements gathered from unrelated publications.
# Lines come from different studies, so protocols differ. Values joined by “and” are separate records of one study, mostly repeats; a detail may differ. Numbers after ± are the reported error.
# Cell line: A549
SMILES,test,conditions,IC50
CN(C)c1ccc(-c2nc3ccccc3s2)[c]([Pt][O]C(=O)c2ccccc2P(c2ccccc2)c2ccccc2)c1,,photoactivated,0.83 µM and 0.63 µM
CC[C@H](C)[C@@H]1NC(=O)[C@@H]2CCCN2C(=O)[C@@H]2CCCN2C(=O)[C@H]([C@@H](C)CC)NC(=O)[C@H](CO)NC(=O)[C@H](CCCCN)NC(=O)[C@H]([C@@H](C)O)NC(=O)[C@@H]2CSSC[C@H](NC1=O)C(=O)N[C@@H](Cc1ccccc1)C(=O)N1CCC[C@H]1C(=O)N[C@@H](CC(=O)O)C(=O)NCC(=O)N[C@@H](CCCNC(=N)N)C(=O)N2,"cell growth or viability, ATP luminescence",72 h,> 100 µM
C[C@H]1C(OCCCCCCCCC[P+](c2ccccc2)(c2ccccc2)c2ccccc2)O[C@@H]2O[C@@]3(C)CCC4[C@H](C)CCC1[C@]42OO3 (stereo partly shown),"cell growth or viability, MTT",72 h,0.224 µM
C=C1C2CC3(C1O)C1CC4C5(C)CCC(O)C4(C1N(CC)C5)C3CC2O (stereo not shown),"cell growth or viability, MTT",,25.2 µM
C[C@@H]1O[C@@H](Oc2cc3c(=O)oc4c(O)c(O)cc5c(=O)oc(c2O)c3c45)[C@H](O)[C@H](OC(=O)c2cc(O)c(O)c(O)c2)[C@H]1OC(=O)c1cc(O)c(O)c(O)c1,"cell growth or viability, MTT",48 h,> 100 µg/mL
CCOC12C(O)C(OC)C3(O)CC(C1C3OC(=O)c1ccccc1)C13C(OC)CCC4(COC)CN(CC)C1C2C(OC)C43 (stereo not shown),"cell growth or viability, MTT",,12.6 µM
C[C@H]1C(OCCCCCCCCCC[P+](c2ccccc2)(c2ccccc2)c2ccccc2)O[C@@H]2O[C@@]3(C)CCC4[C@H](C)CCC1[C@]42OO3 (stereo partly shown),"cell growth or viability, MTT",72 h,0.167 µM
C1CCN(C2CCNCC2)CC1.CCCC(CCC)C(=O)[O][Pt]([OH])([Cl])[Cl].CCCCN,cell growth or viability,,15.5 µM
C=CC[P](c1ccccc1)(c1ccccc1)[Pt]([S]c1ccc(C(F)(F)F)cn1)([S]c1ccc(C(F)(F)F)cn1)[P](CC=C)(c1ccccc1)c1ccccc1,"cell growth or viability, MTT",,12.6 µM
C[C@@H]1CCC2[C@@H](C)[C@@H](OCCC[P+](c3ccccc3)(c3ccccc3)c3ccccc3)O[C@@H]3O[C@@]4(C)CCC1[C@@]23OO4 (stereo partly shown),"cell growth or viability, MTT",72 h,0.179 µM
C[C@H]1O[C@@H](O[C@H]2CC[C@@]3(C)[C@H](CC[C@@H]4[C@@H]3CC[C@]3(C)[C@@H](C5=CC(=O)OC5)[C@@H](O)C[C@]43O)C2)C[C@H](O)[C@@H]1O,"cell growth or viability, MTT",48 h,0.27 µM
C=CC[P](c1ccccc1)(c1ccccc1)[Pt]([S]c1ncccn1)([S]c1ncccn1)[P](CC=C)(c1ccccc1)c1ccccc1,"cell growth or viability, MTT",,16 µM
COCC12CN(C)C3C4C(OC)C1C3(C(OC)CC2O)C1CC2(O)C(OC)C(O)C4(OC(C)=O)C1C2OC(=O)c1ccccc1 (stereo not shown),"cell growth or viability, MTT",,13 µM
C[C@H]1C(OCCCCCCCC[P+](c2ccccc2)(c2ccccc2)c2ccccc2)O[C@@H]2O[C@@]3(C)CCC4[C@H](C)CCC1[C@]42OO3 (stereo partly shown),"cell growth or viability, MTT",72 h,0.126 µM
N.N.O=C([O][Pt]([Cl])([Cl])[O]C(=O)c1ccc(P(c2ccccc2)c2ccccc2)cc1)c1ccc(P(c2ccccc2)c2ccccc2)cc1.[Cl][Au].[Cl][Au],"cell growth or viability, resazurin",72 h,10.2 µM
C#CCCCC[C@H](C)C[C@@H](C)C(=O)N[C@@H](C)C(=O)N1CCC[C@H]1C(=O)N[C@H](C(=O)N[C@H](C(=O)N[C@H](C(=O)N[C@@H](Cc1ccccc1)C(=O)N1CCC[C@H]1C(=O)N1CCC[C@H]1C(C)=O)C(C)C)C(C)C)C(C)C,"cell growth or viability, SRB",,2 µM
OC[C@H]1[C@@H](O)[C@@H](O)CN1Cc1ccc(I)cc1,"cell growth or viability, MTS",72 h,> 200 µM
COCC12CN(C)C3C4C(OC)C1C3(C(OC)CC2O)C1CC2(O)C(O)C1C4(O)C(O)C2OC (stereo not shown),"cell growth or viability, MTT",,8.92 µM
CCCCCCCCc1ccc(C(=O)N[C@@H](CO)C(=O)N[C@H](C(=O)N[C@@H](C)C(=O)N[C@H](C(=O)O)[C@@H](C)CC)[C@@H](C)OP(=O)(O)O)cc1,"cell growth or viability, MTT",72 h,79.5 µM
COc1ccnc(-c2cc(OC)ccn2)c1.[C-]#[O+].[C-]#[O+].[C-]#[O+].[Re+],cell viability,,9.7 ± 4.1 µM
CCN1CC2(COC)CCC(OC)C34C5CC6C(OC)CC(O)(C(CC23)C14)C5C6OC(C)=O (stereo not shown),"cell growth or viability, MTT",,18.5 µM
CC[C@H](C)[C@H](NC(=O)[C@H](CCCCN)NC(=O)[C@H](CCCCN)NC(=O)[C@H](C)NC(=O)[C@H](CC(C)C)NC(=O)[C@H](C)NC(=O)[C@H](C)NC(=O)[C@H](CC(C)C)NC(=O)[C@H](C)NC(=O)[C@H](CCCCN)NC(=O)[C@H](CC(C)C)NC(=O)[C@H](CC(N)=O)NC(=O)[C@@H](NC(=O)[C@H](CCCCN)NC(=O)CNC(=O)[C@H](CC(C)C)NC(=O)[C@H](CC(C)C)NC(=O)[C@H](Cc1ccc(O)cc1)NC(=O)CNC(=O)[C@H](C)NC(=O)[C@H](CO)NC(=O)[C@H](CC(N)=O)NC(=O)[C@H](CC(C)C)NC(=O)[C@@H](NC(=O)[C@H](Cc1c[nH]c2ccccc12)NC(=O)CN)[C@@H](C)O)[C@@H](C)CC)C(=O)N[C@@H](CC(C)C)C(N)=O,cytotoxicity,,2.5 µM
CCCCCCCCCCCC[C@@H](O)[C@H]1CC[C@H]([C@H](O)CCCCCCCCCCCCCCC2=C[C@H](C)OC2=O)O1,"cell growth or viability, MTT",72 h,5 µM
CCN1CC2(COC)CCC(O)C34C5CC6C(OC)CC(O)(C5C6O)C(C(OC)C23)C14 (stereo not shown),"cell growth or viability, MTT",,17.1 µM
C[C@H]1O[C@@H](O[C@H]2[C@@H](O)C[C@H](O[C@H]3[C@@H](O)C[C@H](O[C@H]4CC[C@@]5(C)[C@H](CC[C@@H]6[C@@H]5C[C@@H](O)[C@]5(C)[C@@H](C7=CC(=O)OC7)[C@@H](O)C[C@]65O)C4)O[C@@H]3C)O[C@@H]2C)C[C@H](O)[C@@H]1O,"cell growth or viability, MTT",48 h,0.36 µM
CC[C@H](C)[C@H](NC(=O)[C@H](CCCCN)NC(=O)[C@@H](NC(=O)[C@H](CCC(N)=O)NC(=O)[C@@H](N)CCCNC(=N)N)[C@@H](C)CC)C(=O)N[C@@H](Cc1c[nH]c2ccccc12)C(=O)N[C@@H](Cc1ccccc1)C(=O)N[C@@H](CCC(N)=O)C(=O)N[C@@H](CC(N)=O)C(=O)N[C@@H](CCCNC(=N)N)C(=O)N[C@@H](CCCNC(=N)N)C(=O)N[C@@H](CCSC)C(=O)N[C@@H](CCCCN)C(=O)N[C@@H](Cc1c[nH]c2ccccc12)C(=O)N[C@@H](CCCCN)C(=O)N[C@@H](CCCCN)C(N)=O,cytotoxicity,,60.8 µM
COC(=O)[C@@H](NC(=O)[C@@H](NC(=O)[C@@H](NC(=O)[C@@H]1CCCN1C(=O)[C@H](C)NC(=O)OC(C)(C)C)C(C)C)C(C)C)C(C)C,"cell growth or viability, SRB",,1 µM
CC1OC(OC2CCC3(C)C(CCC4C3CCC3(C)C(C5=CC(=O)OC5)CCC43O)C2)C(O)C(O)C1OC1OC(CO)C(O)C(O)C1O (stereo not shown),"cell growth or viability, MTT",,0.08 µM
